Measurements of several laboratories.
Each numbered part is a random draw from the data of one study; scales do not carry over between parts.

Block 1
Target: Sal-like protein 4, full length isoform A (SALL4, Homo sapiens, UniProt Q9UJQ4, residues 1-1053)
Sequence of UniProt Q9UJQ4 (whole entry, looked up): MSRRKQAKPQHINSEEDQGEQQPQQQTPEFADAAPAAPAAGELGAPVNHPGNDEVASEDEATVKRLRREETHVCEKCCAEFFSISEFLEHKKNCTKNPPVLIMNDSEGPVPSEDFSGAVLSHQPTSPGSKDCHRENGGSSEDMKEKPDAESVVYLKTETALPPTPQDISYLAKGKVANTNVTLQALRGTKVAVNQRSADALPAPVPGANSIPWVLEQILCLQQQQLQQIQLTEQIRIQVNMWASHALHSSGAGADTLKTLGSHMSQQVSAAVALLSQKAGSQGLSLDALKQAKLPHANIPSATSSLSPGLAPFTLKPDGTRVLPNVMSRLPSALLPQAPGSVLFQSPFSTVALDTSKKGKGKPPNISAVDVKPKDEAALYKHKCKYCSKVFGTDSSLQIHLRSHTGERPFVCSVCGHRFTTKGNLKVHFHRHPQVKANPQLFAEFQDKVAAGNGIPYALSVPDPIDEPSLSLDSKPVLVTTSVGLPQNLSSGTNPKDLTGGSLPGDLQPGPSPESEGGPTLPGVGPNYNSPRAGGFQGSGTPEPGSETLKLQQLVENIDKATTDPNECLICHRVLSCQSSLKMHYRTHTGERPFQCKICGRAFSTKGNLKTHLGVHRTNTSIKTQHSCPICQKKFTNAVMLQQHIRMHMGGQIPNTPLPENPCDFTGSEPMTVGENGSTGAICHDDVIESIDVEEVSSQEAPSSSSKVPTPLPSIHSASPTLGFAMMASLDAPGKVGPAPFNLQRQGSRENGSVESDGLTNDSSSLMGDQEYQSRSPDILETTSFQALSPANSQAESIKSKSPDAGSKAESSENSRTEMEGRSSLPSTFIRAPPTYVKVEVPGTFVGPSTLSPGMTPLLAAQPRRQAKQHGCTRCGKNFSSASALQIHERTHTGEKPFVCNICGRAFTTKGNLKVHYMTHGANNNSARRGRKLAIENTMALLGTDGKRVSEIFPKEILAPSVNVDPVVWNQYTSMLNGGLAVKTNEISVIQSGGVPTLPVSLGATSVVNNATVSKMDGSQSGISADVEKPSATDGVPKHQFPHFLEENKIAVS
Technique: universal PBM
Molecule type: double-stranded DNA, one strand shown
Matrix: in vitro
Tested at: 600 nM
Setting: 8-mer, flanks averaged, mean of replicates
Reading: higher = stronger binding
The E-score of `ACACGAAG` is reported as 0.0241.
With `CCAGAAAG` the E-score was -0.0952.
For `AATAAGAG`, the E-score was 0.216.
`AGATATGG` has an E-score of 0.216.

Block 2
Target: Interferon regulatory factor 5, full length, phosphomimetic (IRF5, Homo sapiens, UniProt Q13568-2, residues 1-514, K96S/S451D/S453D/S456D/S462D)
Technique: protein-binding microarray
Molecule type: double-stranded DNA, one strand shown
Matrix: in vitro
Tested at: 250 nM
Setting: 60-bp whole probe
With: salmon DNA 0.4 mg/ml
Baseline: random background probes
Reading: higher = stronger binding
For `GCCTAGCACTTAGATAGCAGTATCGATTAGTGCTAGGTCTTGATTCGCTTGACGCTGCTG`, the log fluorescence was 6.41 z-score.
`GCCTAGCACTGAACTTCGGCCTCTAGGTTTGTGCTAGTCTTGATTCGCTTGACGCTGCTG` has a log fluorescence of 0.0374 z-score.
For `GCCTAGCACGACGATTTCGGGTATCGACACGTGCTAGTCTTGATTCGCTTGACGCTGCTG`, the log fluorescence was 4.73 z-score.

Block 3
Target: RNA binding protein fox-1 homolog 2, RRM domain, GST-SBP tag (RBFOX2, Homo sapiens, UniProt O43251-10, residues 100-194)
Technique: RNA Bind-n-Seq
Molecule type: RNA
Matrix: in vitro
Tested at: 365 nM
Setting: natural RNA segment, single round, ends assumed
Baseline: no-protein control
Reading: higher = stronger binding
For `GGGAGUUCUACAGUCCGACGAUCGGUGAUGGUAGUGGUCAGAAAUGGCUUUUGCUUUGGUAAUAAGUGAAUUUUAUUCCCCAAGAGUCUCAGGCAUCAGAAGUACUUGGCAUCUUAAUCCAAGCAAAAAUAAGUGGAAUUCUCGGGUGCCAA`, “RBNS enrichment (R)” read 0.369.
For `GGGAGUUCUACAGUCCGACGAUCAAGCUUUGGUUGUAGUGUGAGCAUCAUUUGGCAUUAGAGAAACCAUGUACUAGUGGAAAAGUCUAGUGAAAAGGGCAGAAUCUGCAGCUGUAACAAAGCUAAGAACAGCAUGGAAUUCUCGGGUGCCAA`, “RBNS enrichment (R)” read 0.481.
Under “RBNS enrichment (R)”, `GGGAGUUCUACAGUCCGACGAUCAUCUUGAGCUCCGAGUUGGAAGGAGAAAAUGAGAAGUUAACCCCUUGAGCCAUGUGGUCUCUUUACAAUCAAGAGACUGUACAUAUGUGAAAAAAUACAAAUUAAGGACCUGGAAUUCUCGGGUGCCAA` is recorded as 0.488.

Mixed results
`PhoQ, residues 284 288 289 292 302 303 SACGEM` has a fold induction of 0.845 (PhoP, residues 12 14 15 18 19 SPWRL (Escherichia coli, UniProt P23836); Sort-seq, measured: YFP reporter; E. coli; PhoQ-PhoP variant library, with: 10 µM Mg2+; baseline: high Mg2+ state, higher = stronger signaling).

For quick reference, copied from above (block 2):
`GCCTAGCACTGAACTTCGGCCTCTAGGTTTGTGCTAGTCTTGATTCGCTTGACGCTGCTG` has a log fluorescence of 0.0374 z-score.
